Literature values, collected from citations in different studies.
Compare with care: the assays were run in different laboratories. Values joined by “and” are separate records of one study, mostly repeats; a detail may differ. ± marks the error that the study gave.
Genome polyprotein NS3 helicase domain: Genome polyprotein, NS3 helicase domain (Hepatitis C virus genotype 1b, UniProt Q9WMX2)
Gastrin-releasing peptide receptor: Gastrin-releasing peptide receptor (Rattus norvegicus, UniProt P52500)

Molecule | target | assay | system | conditions | IC50
Cn1cncc1[C@@](N)(c1ccc(Cl)cc1)c1ccc2c(c1)c(-c1cccc(Cl)c1)cc(=O)n2C | Protein farnesyltransferase (Rattus norvegicus, UniProt Q02293+Q04631) | inhibitor | – | together with: lamin B peptide substrate | 0.00086 µM
Nc1nc(N)c2c(n1)[nH]c1cccc(Sc3ccccc3)c12 | EGFR (Homo sapiens, UniProt P00533) | kinase activity, inhibitor | – | – | 15.1 ± 3.1 µM
O=C(O)c1cc2cc(Br)ccc2oc1=O | Glutamate NMDA receptor; Grin1/Grin2a (Grin1/Grin2a, Rattus norvegicus, UniProt P35439+Q00959) | – | – | – | 18.6 ± 1.4 µM
NC(=NCc1ccccc1)NC(=O)c1nc(Cl)c(N)nc1N | Degenerin mec-4 (mec-4, Caenorhabditis elegans, UniProt P24612, A713T) | – | – | concentration not given | 0.83 µM
Cc1nc2c(O[C@H]3CCOc4cc(F)cc(F)c43)cc(C(=O)N(C)C)cc2[nH]1 | CYP2C19 (Homo sapiens, UniProt P33261) | enzyme activity, inhibitor | human liver microsomes | – | > 30 µM
CCOc1c([C@H](C)n2nc(C)c3c(N)ncnc32)cc(Cl)c(F)c1[C@@H]1CNC(=O)C1 | PI3Kδ, human | inhibitor | human whole blood | – | 0.01 µM
CNCCC(Oc1ccc(C(F)(F)F)cc1)c1ccccc1 (centres unmarked) | Neuronal acetylcholine receptor; alpha3/beta4 (Homo sapiens, UniProt P30926+P32297) | inhibitor | – | – | 2 ± 0.4 µM
Nc1scc2c(C(=O)NC3CC3)nn(-c3ccc(Cl)cc3)c(=O)c12 | Microtubule-associated protein tau, K18 fragment (244-369) (MAPT, Homo sapiens, UniProt P10636, P618L) | tau K18 fibrillization (ThT), inhibitor | – | tau 20 µM, together with: heparin | 8 ± 2.48 µM
NS(=O)(=O)c1ccc(-n2nc(C(F)(F)F)cc2-c2ccc(F)cc2F)cc1 | COX-2 (sheep placenta) | enzyme activity, inhibitor | – | – | 0.5 µM
C[C@@H]1COCCN1c1nc(-c2ccc(N)nc2)nc2c1C[C@@H]1COCCN21 | Akt pSer473 | phosphorylation, inhibitor | A2058 | – | 0.133 ± 0.016 µM
O=C(O)c1cccc([C@H]2CCN[C@@H]2C(=O)O)c1 | AMPA receptor (rat) | binding, [3H]AMPA displacement | rat synaptosomes | – | 51 µM
Nc1nc2c(ncn2[C@@H]2O[C@H](COP(=O)(O)OP(=O)(O)OP(=O)(O)O)[C@@H](O)[C@H]2O)c(=O)[nH]1 | GLUD1 (Homo sapiens, UniProt P00367) | enzyme activity, allosteric inhibitor | – | reductive amination direction | 0.042 ± 0.012 µM
O=C1CCOc2cc(OCc3ccc(Br)cc3)ccc21 | MAOB (Homo sapiens, UniProt P27338) | enzyme activity, inhibitor | – | – | 0.022 µM
Cc1ccc2nc(-c3ccc4nc(-c5ccc(NC(=O)c6ccc(Cl)c(Cl)c6)cc5)sc4c3)sc2c1S(=O)(=O)O | Genome polyprotein NS3 helicase domain | RNA unwinding | – | – | 3.9 ± 2 µM
OC[C@@H](O)[C@@H]1[C@H](O)[C@H](O)CN1Cc1ccccc1 | human Golgi α-mannosidase II | enzyme activity, inhibitor | – | – | 690 µM
C/C=C1\NC(=O)[C@H]2CSSCC/C=C/[C@H](CC(=O)N[C@H](C(C)C)C(=O)N2)OC(=O)[C@H](C(C)C)NC1=O | HDAC1 (Homo sapiens, UniProt Q13547) | enzyme activity | – | – | 0.0002 µM

Molecule | target | assay | system | conditions | IC50
Cc1ccc(Sc2cccc3[nH]c4nc(N)nc(N)c4c23)cc1 | DHFR (Homo sapiens, UniProt P00374) | inhibitor | – | – | > 31 µM
O=C(/C=C/c1ccc(O)cc1)CC(=O)/C=C/c1ccc(O)cc1 | matrix metalloproteinase-3 | inhibitor | breast cancer cells | – | 6 µM
C=CCC(Nc1ccccc1)C12C=CC(O1)C(C(=O)OC)=C2C(=O)OC (centres unmarked) | human tyrosyl-DNA phosphodiesterase 1 | enzyme activity, inhibitor | cellular | – | < 7 µM
O=C(O)CCNC(=S)NCCCC[C@H](NS(=O)(=O)c1cccc(F)c1)C(=O)N[C@@H](Cc1c[nH]c2ccccc12)C(=O)NC1CCC1 | SIRT5 (Homo sapiens, UniProt Q9NXA8) | desuccinylase activity, inhibitor, fluor de Lys | – | – | 0.11 µM
CC(C)C[C@H](NC(=O)[C@@H](CC(=O)NO)Cc1ccccc1)C(=O)O | leucine aminopeptidase | inhibitor | – | range reported for several peptidases | 0.03 to 0.06 µM
Oc1ccc(/C=C/c2cc(O)cc(O)c2)cc1 | alpha-glucosidase | enzyme activity, inhibitor | – | – | 31.1 µM
Cc1ccc(NC(=O)/C=C/c2ccco2)cc1 | Nicotinic acetylcholine receptor alpha9/alpha10 (Rattus norvegicus, UniProt P43144+Q9JLB5) | inhibitor | – | – | 174 µM
O=c1c2ccccc2[se]n1-c1ccccc1 | horseradish peroxidase | inhibitor | – | – | ~17 µM and 17 µM
Nc1ncnc2c1ncn2[C@@H]1O[C@H](CSCC[C@H](N)C(=O)O)[C@@H](O)[C@H]1O | NNMT (Homo sapiens, UniProt P40261) | inhibitor | – | – | 75.4 ± 6.3 µM
Cc1ccc2nc(-c3ccc4nc(-c5ccc(NC(=O)c6ccc(F)cc6)cc5)sc4c3)sc2c1S(=O)(=O)O | Genome polyprotein NS3 helicase domain | RNA unwinding | – | – | 4.2 ± 2 µM
O=c1cc(-c2ccccc2)oc2cc(O)c(O)c(O)c12 | XDH (Bos taurus, UniProt P80457) | inhibitor | – | – | 46.2 µM
CSCC[C@H](NC(=O)[C@@H](Cc1c[nH]c2ccccc12)NC(=O)[C@@H](Cc1c[nH]c2ccccc12)NC(=O)[C@H](Cc1ccccc1)NC(=O)[C@@H](Cc1c[nH]c2ccccc12)NC(=O)[C@H](CCC(N)=O)NC(=O)[C@H](CCC(N)=O)NC(=O)[C@H]1CCCN1)C(N)=O | Gastrin-releasing peptide receptor | – | – | – | > 10 µM
O=C1Cc2ccccc2N1 | VEGF receptor 2 (Flk-1) | inhibitor | – | – | 0.39 µM
O=c1c2ccccc2nc2n1CCc1c-2[nH]c2ccccc12 | Cytochrome P450 1A2 (CYP1A2, Homo sapiens, UniProt P05177) | enzyme activity, inhibitor | recombinant bacterial membranes | together with: 7-ethoxyresorufin | 0.02 µM
CSCC[C@H](NC(=O)[C@H](CC(C)C)NC(=O)[C@@H](Cc1ccccc1)NC(=O)CNC(=O)[C@@H](NC(=O)[C@H](C)NC(=O)[C@H](Cc1c[nH]c2ccccc12)NC(=O)[C@H](CCC(N)=O)NC(=O)[C@H](CC(N)=O)NC(=O)CNC(=O)[C@H](Cc1ccc(O)cc1)NC(=O)[C@H](CCCNC(=N)N)NC(=O)[C@H](CCC(N)=O)NC(=O)[C@@H]1CCC(=O)N1)C(C)C)C(N)=O | Gastrin-releasing peptide receptor | binding | – | literature species comparison | > 10 µM
MGWCTASVPPQCYG | CELA1 (Sus scrofa, UniProt P00772) | inhibitor | peptide | – | 18.7 µM
